Measurements gathered from unrelated publications.
Every numbered part comes from another study and shows a few of its results, in no order.
Chain of UniProt Q9BXA7 (whole entry, looked up): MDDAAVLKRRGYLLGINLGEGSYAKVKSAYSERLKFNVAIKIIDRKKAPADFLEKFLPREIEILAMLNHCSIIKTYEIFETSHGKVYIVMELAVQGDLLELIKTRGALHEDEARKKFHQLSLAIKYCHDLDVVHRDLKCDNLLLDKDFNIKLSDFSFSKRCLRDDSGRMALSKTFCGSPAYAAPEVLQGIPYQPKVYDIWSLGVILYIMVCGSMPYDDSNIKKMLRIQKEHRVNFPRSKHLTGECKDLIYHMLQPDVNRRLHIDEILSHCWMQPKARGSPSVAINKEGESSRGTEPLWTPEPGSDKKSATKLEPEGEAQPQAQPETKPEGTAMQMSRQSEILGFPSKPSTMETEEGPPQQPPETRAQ
Chain of UniProt O60674 (whole entry, looked up): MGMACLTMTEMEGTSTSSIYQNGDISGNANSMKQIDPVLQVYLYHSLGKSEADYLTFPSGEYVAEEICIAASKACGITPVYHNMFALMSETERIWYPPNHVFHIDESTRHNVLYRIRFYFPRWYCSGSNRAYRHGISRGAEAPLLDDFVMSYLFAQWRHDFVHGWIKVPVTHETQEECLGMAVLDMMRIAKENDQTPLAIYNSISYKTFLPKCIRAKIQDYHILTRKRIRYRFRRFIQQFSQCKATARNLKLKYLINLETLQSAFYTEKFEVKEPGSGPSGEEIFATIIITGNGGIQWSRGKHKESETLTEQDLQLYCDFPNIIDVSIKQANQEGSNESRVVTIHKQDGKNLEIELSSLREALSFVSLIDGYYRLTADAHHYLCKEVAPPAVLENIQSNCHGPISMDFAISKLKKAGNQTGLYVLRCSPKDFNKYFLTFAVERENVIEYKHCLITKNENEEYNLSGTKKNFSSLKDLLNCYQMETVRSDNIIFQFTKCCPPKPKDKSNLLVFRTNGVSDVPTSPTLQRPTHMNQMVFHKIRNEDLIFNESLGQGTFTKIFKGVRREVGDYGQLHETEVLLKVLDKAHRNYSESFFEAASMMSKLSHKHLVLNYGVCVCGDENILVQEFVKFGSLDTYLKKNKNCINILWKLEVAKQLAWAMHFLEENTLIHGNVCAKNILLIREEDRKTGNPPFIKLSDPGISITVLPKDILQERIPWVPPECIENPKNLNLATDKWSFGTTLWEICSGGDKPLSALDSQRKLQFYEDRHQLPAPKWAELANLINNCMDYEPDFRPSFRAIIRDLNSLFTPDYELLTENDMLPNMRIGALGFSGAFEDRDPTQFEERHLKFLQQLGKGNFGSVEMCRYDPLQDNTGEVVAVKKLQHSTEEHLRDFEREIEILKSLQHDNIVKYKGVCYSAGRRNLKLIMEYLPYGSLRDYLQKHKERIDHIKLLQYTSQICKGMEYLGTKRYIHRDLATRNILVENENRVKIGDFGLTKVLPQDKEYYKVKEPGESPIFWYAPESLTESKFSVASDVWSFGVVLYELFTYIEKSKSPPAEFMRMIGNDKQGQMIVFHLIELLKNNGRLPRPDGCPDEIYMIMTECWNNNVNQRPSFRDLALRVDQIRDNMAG
Chain of UniProt P53779 (whole entry, looked up): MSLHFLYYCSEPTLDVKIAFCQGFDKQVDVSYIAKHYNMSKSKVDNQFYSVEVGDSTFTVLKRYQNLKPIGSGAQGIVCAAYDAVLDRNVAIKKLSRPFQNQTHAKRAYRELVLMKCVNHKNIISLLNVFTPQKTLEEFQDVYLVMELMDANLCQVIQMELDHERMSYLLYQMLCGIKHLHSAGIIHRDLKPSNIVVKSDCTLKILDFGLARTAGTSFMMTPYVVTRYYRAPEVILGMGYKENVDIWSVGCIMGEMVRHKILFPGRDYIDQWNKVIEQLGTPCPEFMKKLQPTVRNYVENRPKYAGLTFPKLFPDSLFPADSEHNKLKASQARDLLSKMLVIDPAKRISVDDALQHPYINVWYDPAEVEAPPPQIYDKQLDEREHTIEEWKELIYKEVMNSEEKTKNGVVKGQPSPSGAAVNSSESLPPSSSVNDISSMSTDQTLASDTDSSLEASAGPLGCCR
Chain of UniProt Q5VT25 (whole entry, looked up): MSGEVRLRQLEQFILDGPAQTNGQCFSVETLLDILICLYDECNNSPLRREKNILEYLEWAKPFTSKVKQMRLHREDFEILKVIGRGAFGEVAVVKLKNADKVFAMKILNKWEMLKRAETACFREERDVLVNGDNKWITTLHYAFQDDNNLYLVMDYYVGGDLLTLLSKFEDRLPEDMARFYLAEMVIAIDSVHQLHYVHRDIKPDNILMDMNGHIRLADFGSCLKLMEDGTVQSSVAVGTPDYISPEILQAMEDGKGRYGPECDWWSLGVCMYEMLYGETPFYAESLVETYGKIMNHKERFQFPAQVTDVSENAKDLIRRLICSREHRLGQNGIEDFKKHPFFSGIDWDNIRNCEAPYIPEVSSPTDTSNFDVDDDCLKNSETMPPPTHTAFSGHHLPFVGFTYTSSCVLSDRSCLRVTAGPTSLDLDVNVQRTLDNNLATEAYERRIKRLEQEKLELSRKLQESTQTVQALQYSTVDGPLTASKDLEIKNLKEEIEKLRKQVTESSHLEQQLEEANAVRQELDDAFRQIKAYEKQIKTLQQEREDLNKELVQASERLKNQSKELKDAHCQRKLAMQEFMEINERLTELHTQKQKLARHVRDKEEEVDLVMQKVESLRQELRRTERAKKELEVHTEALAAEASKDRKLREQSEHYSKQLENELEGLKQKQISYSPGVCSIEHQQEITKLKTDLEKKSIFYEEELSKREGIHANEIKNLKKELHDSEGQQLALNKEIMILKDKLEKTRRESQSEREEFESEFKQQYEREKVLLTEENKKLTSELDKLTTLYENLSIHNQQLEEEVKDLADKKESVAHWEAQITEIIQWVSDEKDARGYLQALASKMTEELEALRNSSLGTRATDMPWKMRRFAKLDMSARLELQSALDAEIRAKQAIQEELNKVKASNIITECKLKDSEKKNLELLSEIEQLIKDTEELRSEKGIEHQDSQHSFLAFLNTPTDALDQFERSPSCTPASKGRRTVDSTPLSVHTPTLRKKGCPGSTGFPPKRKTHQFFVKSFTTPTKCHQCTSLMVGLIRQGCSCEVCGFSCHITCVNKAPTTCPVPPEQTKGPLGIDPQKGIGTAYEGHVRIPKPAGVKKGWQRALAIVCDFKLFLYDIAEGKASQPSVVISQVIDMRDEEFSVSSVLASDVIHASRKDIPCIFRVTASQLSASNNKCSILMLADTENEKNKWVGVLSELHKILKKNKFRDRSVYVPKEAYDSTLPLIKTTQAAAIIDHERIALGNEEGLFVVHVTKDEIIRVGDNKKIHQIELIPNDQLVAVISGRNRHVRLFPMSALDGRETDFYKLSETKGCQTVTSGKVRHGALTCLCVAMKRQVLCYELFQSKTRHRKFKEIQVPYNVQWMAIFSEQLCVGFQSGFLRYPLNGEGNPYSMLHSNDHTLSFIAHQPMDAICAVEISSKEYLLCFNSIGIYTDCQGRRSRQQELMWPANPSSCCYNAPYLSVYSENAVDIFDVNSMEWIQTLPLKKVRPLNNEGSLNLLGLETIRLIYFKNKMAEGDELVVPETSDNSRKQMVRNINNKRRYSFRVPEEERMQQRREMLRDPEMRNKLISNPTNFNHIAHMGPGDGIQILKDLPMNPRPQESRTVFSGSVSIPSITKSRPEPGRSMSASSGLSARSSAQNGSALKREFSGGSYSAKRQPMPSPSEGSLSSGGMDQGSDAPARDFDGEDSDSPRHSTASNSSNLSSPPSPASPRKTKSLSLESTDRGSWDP
Chain of UniProt Q9BZL6 (whole entry, looked up): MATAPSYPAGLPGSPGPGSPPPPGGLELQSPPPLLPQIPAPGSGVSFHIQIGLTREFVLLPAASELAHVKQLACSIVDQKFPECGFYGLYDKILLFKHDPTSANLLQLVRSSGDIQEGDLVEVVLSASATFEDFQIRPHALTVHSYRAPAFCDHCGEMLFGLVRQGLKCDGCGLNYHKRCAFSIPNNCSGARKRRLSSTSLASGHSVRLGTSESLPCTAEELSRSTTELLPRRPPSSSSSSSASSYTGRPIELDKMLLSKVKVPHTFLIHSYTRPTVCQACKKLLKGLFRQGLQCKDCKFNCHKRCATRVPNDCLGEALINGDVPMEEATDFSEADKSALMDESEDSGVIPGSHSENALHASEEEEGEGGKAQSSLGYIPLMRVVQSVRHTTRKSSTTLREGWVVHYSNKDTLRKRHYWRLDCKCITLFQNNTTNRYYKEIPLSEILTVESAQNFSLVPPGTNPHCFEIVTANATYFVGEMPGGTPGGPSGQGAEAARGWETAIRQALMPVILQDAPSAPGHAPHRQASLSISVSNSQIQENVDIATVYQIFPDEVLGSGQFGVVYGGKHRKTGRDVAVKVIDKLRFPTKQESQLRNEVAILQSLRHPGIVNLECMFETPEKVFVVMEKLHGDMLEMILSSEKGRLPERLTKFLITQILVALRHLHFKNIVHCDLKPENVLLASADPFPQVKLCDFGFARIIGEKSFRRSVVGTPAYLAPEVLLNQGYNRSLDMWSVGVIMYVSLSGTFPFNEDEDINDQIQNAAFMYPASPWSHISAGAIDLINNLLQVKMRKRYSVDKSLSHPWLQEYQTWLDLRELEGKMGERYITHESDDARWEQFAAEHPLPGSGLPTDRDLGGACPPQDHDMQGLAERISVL
Chain of UniProt Q9Y243 (whole entry, looked up): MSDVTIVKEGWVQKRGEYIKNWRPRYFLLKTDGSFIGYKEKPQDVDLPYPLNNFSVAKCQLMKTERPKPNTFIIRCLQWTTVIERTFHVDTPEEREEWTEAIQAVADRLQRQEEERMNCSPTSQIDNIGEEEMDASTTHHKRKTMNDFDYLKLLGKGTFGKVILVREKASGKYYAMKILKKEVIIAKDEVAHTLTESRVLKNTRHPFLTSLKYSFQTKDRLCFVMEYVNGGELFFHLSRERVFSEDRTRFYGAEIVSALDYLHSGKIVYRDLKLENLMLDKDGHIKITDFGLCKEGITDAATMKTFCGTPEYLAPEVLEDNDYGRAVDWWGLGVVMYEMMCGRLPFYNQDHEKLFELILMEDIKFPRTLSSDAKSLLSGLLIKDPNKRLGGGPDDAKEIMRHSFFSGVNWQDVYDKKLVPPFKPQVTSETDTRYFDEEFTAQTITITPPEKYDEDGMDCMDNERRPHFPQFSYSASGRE

Block 1
Target: RNA binding protein fox-1 homolog 2, RRM domain, GST-SBP tag (RBFOX2, Homo sapiens, UniProt O43251-10, residues 100-194)
Method: RNA Bind-n-Seq
Form: RNA
Sample: in vitro
Tested at: 365 nM
Notes: natural RNA segment, single round, ends assumed
Reference: no-protein control
Direction: higher = stronger binding
All sequences stand within: GGGAGUUCUACAGUCCGACGAUC … UGGAAUUCUCGGGUGCCAA
Target sequence (chain): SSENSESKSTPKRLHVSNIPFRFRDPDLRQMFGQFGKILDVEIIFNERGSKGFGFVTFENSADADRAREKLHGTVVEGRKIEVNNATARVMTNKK
Sequence	RBNS enrichment (R)
CAGCUUUCAAAUCAUUGGGGGGAGAAAAAGGAUGUCUUUCAGGAUUAUUUUAAUUAAUUUUUUUCAUAAUUGAGACAGAACUGUUUGUUAUGUACCAUAAUGCUAAAUAA	0.767
GGUUCACCCCGCCCAAGGGACCUGCCCCCAUUCCUGUGGCCCUGGGGCCCAGCUUCCAAUAGUGUCAGAAGCAACUUGUGGCUUUGCCUUGGUUGUGAGAUGGGUACAUU	0.22
UCAGACAAGGAAUUUAGGAAGCAAAAGUUGACCAAGGGUGCAUUGGGUUCGCCUCCCCGAGGCUCCGUUUCCAAGCGAUUCAACGUUAACUACCUUUUUCUGUAUGCUUU	0.456
GAGGGGGAAAGAUUCUACUUCAAAUCUUUAACAACAAGAGUGAUUCUGUUCAGCUGGGGUAGAGUGAGGAUGAAAAGUCAGCCACCACUCUGUGGCAGGGUUGCUGGGUG	0.487
UCAAUUUUAAAGCAUUAUUAAGACUGUAUGAACAUUUAAAAAUCCACCUAUAUUAAGUACAUCACAAGAACACAGAGGACUGAUUUUCUUUUUAUAAUUUAAUAUGUCAU	0.539
CCUGAAAGUAUCUGUAAGCAAUACUAGUAGGUAAGAUUUCACUGUGUGUACACAUACACAUUUGAGAUUGUAUGAGAACAUAUAAUCCAUAUGAUAUGUUGUACAUUUUA	0.277
CCUGCGGGUCGCACCCCAGGCAUACUGAAAGGCCAUACUCGUGGCUGGCUGCCUGCGGGCCUAAGCCUUCCCAGGAUCUUCAGGACACUUGACAGACUUGUGUUUUCUGG	0.385
UGUGGAACGAAGAGGAUGGGGAAAAGGCAGAGGGCACUGAGUGUCCCUUUAAAAACUAACCCACUGAAUAUUCCGUGUGAUCUAGAACAGUGUGGCAGCUUUCACAGCAC	0.44

Block 2
Host: human
Sample: microsomes or S9
Tested at: 2 µM
Time: 0.5 h
Compound	remaining compound
Cc1nc(C(C)(C)C)nc(N2CCC(n3cncn3)CC2)c1C	58.9%
CN(C)CCN(Cc1ccncc1)Cc1c(F)cccc1Cl	97.8%
CCN(C1=C(N2CCC(C)CC2)C(=O)c2ccccc2C1=O)c1ccccc1	39.7%

Block 3
Cell line: mouse MPNST tumor cells
Method: high-content nuclear imaging
Item: cell number
Tested at: 10 µM
Time: 12 h
Notes: mean of 2 replicates
Reference: plate mean
Direction: higher = more cells
Structure (SMILES)	nuclei count
CN1[C@@H]2CC[C@H]1C[C@@H](OC(=O)c1c[nH]c3ccccc13)C2	2.09 z-score
CC1(C)c2cc(Cl)ccc2N(CCc2nn[nH]n2)c2ccc(Cl)cc21	1.47 z-score
CC(C)(C)NC[C@H](O)COc1nsnc1N1CCOCC1	0.513 z-score

Block 4
SMILES: N#CC1(c2ccccn2)CCN(Cc2cc(C(=O)N3CCCC3)c(=O)n3ccccc23)CC1
Observed: cell-free assay
Method: competition with immobilised ligand
Tested at: 1 µM
target	remaining binding
TBK1 (Homo sapiens, UniProt Q9UHD2)	99%
TSSK1B (Homo sapiens, UniProt Q9BXA7)	98%
PAK4 (Homo sapiens, UniProt O96013)	100%
PRKD2 (Homo sapiens, UniProt Q9BZL6)	85%
CDK16 (Homo sapiens, UniProt Q00536)	100%
HUNK (Homo sapiens, UniProt P57058)	79%
AKT3 (Homo sapiens, UniProt Q9Y243)	74%
MAP3K2 (Homo sapiens, UniProt Q9Y2U5)	100%
Myosin-IIIa (MYO3A, Homo sapiens, UniProt Q8NEV4)	80%
Tyrosine-protein kinase JAK2, JH1 (JAK2, Homo sapiens, UniProt O60674)	85%
CSK (Homo sapiens, UniProt P41240)	91%
MAP3K9 (Homo sapiens, UniProt P80192)	72%
MAPK10 (Homo sapiens, UniProt P53779)	96%

Block 5
Structure (SMILES): Cc1ccc(NC(=O)c2ccnc(C(F)(F)F)c2)cc1-c1cc(OCCO)nc(N2CCOCC2)c1
Tested at: 1 µM
target	assay	conditions	scale	remaining binding [%]
Aurora kinase B (AURKB, Homo sapiens, UniProt Q96GD4)	competitive binding panel	–	reference: vehicle	89
TSSK1B (Homo sapiens, UniProt Q9BXA7)	competitive binding panel	–	reference: vehicle	88
CDC42BPA (Homo sapiens, UniProt Q5VT25)	competitive binding, scanMAX	MRCKA, 1000 nM	–	100

Further values, each from its own experiment
SMILES	assay	test system	conditions	quantity	value
CC(C)n1cnc(-c2ccc(F)cc2)c1-c1ncc(C(=O)Nc2ccc(N3CCN(C)CC3)cc2)[nH]1	phase 2a trial	idiopathic pulmonary fibrosis patients	30 mg once daily, grade 3	patients with increased interferon-gamma	0%

For quick reference, copied from above (block 5):
target	assay	conditions	scale	remaining binding [%]
Aurora kinase B (AURKB, Homo sapiens, UniProt Q96GD4)	competitive binding panel	–	reference: vehicle	89
TSSK1B (Homo sapiens, UniProt Q9BXA7)	competitive binding panel	–	reference: vehicle	88
